Measurements of several laboratories.
Protocols differ between the studies behind these lines. Values joined by “and” are separate records of one study, mostly repeats; a detail may differ. ± marks the error that the study gave.
ache: Acetylcholinesterase (ache, Electrophorus electricus, UniProt O42275)
Sequence of UniProt O42275 (whole entry, looked up): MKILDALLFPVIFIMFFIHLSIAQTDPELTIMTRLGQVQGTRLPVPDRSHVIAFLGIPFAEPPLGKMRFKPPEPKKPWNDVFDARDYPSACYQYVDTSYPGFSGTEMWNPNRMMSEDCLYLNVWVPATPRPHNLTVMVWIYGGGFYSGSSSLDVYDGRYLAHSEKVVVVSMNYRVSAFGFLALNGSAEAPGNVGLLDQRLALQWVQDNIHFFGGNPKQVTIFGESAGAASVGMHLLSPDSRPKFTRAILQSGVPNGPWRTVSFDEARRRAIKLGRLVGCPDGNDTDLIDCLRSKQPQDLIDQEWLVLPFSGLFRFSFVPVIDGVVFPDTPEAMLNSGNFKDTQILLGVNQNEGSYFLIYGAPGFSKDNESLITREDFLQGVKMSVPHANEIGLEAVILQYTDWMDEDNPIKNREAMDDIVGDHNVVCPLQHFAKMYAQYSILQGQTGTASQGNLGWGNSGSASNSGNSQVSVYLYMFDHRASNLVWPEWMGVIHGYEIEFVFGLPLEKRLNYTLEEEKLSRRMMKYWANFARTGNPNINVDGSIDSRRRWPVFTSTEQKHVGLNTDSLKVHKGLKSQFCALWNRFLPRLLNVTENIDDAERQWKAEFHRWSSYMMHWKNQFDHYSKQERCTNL
AVPR2: Vasopressin V2 receptor (AVPR2, Homo sapiens, UniProt P30518)
OPRM1: Mu-type opioid receptor (OPRM1, Homo sapiens, UniProt P35372)
Sequence of UniProt P27361 (whole entry, looked up): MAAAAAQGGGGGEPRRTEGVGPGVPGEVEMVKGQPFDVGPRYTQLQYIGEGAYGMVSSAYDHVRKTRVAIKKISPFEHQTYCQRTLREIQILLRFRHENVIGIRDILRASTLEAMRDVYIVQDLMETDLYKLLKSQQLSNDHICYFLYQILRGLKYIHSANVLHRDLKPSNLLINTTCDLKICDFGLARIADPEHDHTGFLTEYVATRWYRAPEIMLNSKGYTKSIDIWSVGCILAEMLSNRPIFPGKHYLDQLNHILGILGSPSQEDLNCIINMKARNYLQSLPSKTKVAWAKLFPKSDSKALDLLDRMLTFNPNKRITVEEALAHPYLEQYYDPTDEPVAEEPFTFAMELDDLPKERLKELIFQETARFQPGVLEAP
Sequence of UniProt Q9JLB5 (whole entry, looked up): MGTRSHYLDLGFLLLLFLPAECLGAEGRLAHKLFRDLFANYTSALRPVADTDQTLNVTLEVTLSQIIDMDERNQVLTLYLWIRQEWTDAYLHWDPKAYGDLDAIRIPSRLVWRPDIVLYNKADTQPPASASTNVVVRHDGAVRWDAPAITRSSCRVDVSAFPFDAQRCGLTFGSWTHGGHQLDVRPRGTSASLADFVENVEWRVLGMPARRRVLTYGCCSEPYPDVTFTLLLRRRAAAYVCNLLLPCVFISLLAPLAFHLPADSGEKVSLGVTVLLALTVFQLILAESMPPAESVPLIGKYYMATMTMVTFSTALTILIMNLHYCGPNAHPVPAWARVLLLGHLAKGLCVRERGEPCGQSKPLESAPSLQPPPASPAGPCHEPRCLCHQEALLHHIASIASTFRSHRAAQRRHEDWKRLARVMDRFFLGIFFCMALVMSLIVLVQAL
Sequence of UniProt P35372 (whole entry, looked up): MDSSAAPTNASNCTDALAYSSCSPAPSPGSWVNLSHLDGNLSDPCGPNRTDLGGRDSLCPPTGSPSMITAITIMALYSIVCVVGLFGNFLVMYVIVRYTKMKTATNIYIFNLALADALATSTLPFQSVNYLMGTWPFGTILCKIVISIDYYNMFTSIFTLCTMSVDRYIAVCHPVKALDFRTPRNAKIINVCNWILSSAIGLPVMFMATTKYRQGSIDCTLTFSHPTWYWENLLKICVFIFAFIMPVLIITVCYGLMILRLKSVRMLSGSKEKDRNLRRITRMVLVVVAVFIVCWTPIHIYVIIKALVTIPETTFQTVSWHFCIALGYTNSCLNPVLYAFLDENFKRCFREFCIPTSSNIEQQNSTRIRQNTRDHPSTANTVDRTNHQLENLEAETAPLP
Sequence of UniProt P43144 (whole entry, looked up): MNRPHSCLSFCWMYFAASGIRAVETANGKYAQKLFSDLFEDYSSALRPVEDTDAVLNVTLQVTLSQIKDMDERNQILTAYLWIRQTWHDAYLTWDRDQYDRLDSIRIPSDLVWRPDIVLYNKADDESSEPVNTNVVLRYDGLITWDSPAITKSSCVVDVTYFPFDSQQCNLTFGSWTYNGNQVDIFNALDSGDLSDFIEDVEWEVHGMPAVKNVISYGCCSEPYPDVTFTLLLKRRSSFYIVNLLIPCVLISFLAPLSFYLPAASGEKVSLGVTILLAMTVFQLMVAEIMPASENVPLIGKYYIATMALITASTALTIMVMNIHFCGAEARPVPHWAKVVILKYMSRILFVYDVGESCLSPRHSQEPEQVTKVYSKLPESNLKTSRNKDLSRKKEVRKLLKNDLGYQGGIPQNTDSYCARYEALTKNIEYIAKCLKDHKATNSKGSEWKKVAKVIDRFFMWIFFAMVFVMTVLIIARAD
Sequence of UniProt P30989 (whole entry, looked up): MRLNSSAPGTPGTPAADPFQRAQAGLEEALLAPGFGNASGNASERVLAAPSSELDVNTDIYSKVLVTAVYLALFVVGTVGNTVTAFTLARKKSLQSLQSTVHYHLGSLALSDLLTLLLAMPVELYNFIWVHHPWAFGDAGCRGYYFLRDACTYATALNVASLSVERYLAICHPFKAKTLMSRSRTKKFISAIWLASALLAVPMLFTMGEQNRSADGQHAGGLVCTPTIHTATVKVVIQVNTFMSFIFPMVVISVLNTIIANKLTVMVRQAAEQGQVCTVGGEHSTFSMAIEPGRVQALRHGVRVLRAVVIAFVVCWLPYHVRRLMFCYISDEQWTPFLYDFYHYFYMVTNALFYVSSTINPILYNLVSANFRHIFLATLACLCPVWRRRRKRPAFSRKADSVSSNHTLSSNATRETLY
Sequence of UniProt P54634 (whole entry, looked up): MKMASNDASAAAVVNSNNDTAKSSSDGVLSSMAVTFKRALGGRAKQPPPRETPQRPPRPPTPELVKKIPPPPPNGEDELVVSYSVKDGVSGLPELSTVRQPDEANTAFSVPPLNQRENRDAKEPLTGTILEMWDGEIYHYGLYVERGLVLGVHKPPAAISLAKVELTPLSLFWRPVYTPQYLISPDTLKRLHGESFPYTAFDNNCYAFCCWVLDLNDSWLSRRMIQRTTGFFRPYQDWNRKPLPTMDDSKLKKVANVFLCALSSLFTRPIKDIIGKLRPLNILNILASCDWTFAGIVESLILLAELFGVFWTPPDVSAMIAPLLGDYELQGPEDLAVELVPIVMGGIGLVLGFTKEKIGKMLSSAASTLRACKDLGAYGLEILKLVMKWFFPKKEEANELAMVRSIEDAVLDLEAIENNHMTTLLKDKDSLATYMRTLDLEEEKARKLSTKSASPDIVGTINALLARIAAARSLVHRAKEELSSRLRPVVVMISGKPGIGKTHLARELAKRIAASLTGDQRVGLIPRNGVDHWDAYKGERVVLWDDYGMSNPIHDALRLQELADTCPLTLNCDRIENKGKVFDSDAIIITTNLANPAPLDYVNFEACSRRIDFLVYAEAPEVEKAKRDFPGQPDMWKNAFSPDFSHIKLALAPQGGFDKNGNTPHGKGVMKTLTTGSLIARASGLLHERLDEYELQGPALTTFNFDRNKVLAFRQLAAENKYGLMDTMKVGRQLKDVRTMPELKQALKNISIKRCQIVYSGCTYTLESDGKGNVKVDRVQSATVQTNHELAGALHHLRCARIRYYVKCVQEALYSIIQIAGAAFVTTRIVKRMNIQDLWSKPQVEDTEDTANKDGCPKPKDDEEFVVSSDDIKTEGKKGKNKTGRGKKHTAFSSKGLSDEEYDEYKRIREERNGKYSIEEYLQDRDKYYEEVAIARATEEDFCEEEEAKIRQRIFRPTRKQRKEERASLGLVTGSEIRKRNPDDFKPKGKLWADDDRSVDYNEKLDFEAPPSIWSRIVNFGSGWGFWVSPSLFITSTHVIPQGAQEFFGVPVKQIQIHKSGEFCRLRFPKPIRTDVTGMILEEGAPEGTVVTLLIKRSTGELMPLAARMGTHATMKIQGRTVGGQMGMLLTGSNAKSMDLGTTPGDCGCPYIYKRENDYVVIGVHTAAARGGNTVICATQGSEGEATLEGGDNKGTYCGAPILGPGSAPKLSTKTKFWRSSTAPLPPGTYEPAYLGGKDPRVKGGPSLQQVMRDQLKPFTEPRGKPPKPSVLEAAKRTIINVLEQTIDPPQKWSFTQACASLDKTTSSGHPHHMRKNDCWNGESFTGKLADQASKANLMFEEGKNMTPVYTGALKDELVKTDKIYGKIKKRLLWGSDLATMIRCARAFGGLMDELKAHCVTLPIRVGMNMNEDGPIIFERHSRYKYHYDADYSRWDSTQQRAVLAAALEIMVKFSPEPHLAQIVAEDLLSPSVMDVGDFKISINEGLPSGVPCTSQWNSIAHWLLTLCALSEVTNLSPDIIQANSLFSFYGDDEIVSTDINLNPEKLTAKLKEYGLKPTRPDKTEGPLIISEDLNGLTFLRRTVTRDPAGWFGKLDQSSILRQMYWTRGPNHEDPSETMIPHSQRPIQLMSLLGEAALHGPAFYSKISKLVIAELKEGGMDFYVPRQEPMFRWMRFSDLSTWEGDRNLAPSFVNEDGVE
Sequence of UniProt P50750 (whole entry, looked up): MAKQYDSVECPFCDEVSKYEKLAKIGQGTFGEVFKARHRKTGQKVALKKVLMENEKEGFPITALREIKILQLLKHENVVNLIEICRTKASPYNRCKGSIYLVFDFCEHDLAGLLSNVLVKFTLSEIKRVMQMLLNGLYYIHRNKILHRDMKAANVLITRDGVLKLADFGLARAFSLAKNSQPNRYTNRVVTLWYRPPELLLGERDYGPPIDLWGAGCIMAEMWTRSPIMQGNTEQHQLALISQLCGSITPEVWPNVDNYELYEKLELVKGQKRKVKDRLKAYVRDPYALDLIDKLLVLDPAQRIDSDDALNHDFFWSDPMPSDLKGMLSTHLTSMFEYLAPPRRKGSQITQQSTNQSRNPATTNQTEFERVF
Sequence of UniProt P07148 (whole entry, looked up): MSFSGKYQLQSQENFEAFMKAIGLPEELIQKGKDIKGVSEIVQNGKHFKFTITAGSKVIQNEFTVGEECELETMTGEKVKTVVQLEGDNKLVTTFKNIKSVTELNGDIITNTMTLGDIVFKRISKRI

`CN1CC[C@@H](c2c(O)cc(O)c3c(=O)cc(-c4ccc(C(F)(F)F)cc4Cl)oc23)[C@@H]1CO`: “patients with adverse event” 60% (refers to: Anorexia; AML; oral, 200 mg, intermittent dosing).
With `O=C(O)C[C@H](NC(=O)[C@H](CC(=O)O)NC(=O)[C@H](CC(=O)O)NC(=O)[C@H](CC(=O)O)NC(=O)[C@H](CC(=O)O)NC(=O)[C@H](CC(=O)O)NC(=O)[C@H](CC(=O)O)NC(=O)[C@H](CC(=O)O)NC(=O)[C@H](CC(=O)O)NC(=O)[C@H](CC(=O)O)NC(=O)[C@H](CC(=O)O)NC(=O)[C@H](CCCCNC(=O)c1ccc(C(=O)NCCOCCOB2BBBBBB3BBBB3B2)cc1)NC(=O)CN1CCN(CC(=O)O)CCN(CC(=O)O)CCN(CC(=O)O)CC1)C(=O)O` [gallium-67 labelled] the tissue uptake was 0.2 %ID/g (ddY male mice, small intestine; intravenous, 37 kBq, 3 h).
For `CCCCO`, the Km was about 64 mM (ADH1 (Saccharomyces cerevisiae, UniProt P00330, H49Q); enzyme activity, substrate; pH 6).
With `COc1cc(Nc2ncc(F)c(Nc3ccc4c(n3)NC(=O)C(C)(C)O4)n2)cc(OC)c1OC` the IC50 was over 10 µM (NTSR1 (Homo sapiens, UniProt P30989)).
With `CC[C@H](C)[C@H](NC(=O)[C@H](Cc1ccccc1)NC(=O)[C@H](CCC(=O)O)NC(=O)[C@H](CCCNC(=N)N)NC(=O)[C@H](C)NC(=O)[C@H](C)NC(=O)[C@H](CCC(N)=O)NC(=O)[C@H](CCC(=O)O)NC(=O)[C@H](CCC(=O)O)NC(=O)[C@H](CC(C)C)NC(=O)[C@H](Cc1ccc(O)cc1)NC(=O)[C@H](CO)NC(=O)[C@H](CO)NC(=O)[C@@H](NC(=O)[C@H](CC(=O)O)NC(=O)[C@H](CO)NC(=O)[C@@H](NC(=O)[C@H](Cc1ccccc1)NC(=O)[C@@H](NC(=O)CNC(=O)[C@H](CCC(=O)O)NC(=O)[C@H](C)NC(=O)CCc1c[nH]cn1)[C@@H](C)O)[C@@H](C)O)C(C)C)C(=O)N[C@@H](C)C(=O)N[C@@H](Cc1c[nH]c2ccccc12)C(=O)N[C@@H](CC(C)C)C(=O)N[C@H](C(=O)N[C@@H](CCCNC(=N)N)C(=O)NCC(=O)N[C@@H](CCCNC(=N)N)C(=O)N[C@@H](CCCCNC(=O)COCCOCCNC(=O)COCCOCCNC(=O)CC[C@H](NC(=O)CCCCCCCCCCCCCCCCC(=O)O)C(=O)O)C(=O)NCC(=O)NCC(=O)N[C@@H](CO)C(=O)N[C@@H](CCCCNc1c(NCCCCCN(O)C(=O)CCC(=O)NCCCCCN(O)C(=O)CCC(=O)NCCCCCN(O)C(C)=O)c(=O)c1=O)C(=O)O)C(C)C` [zirconium-89 labelled] the tissue uptake was 0.14 %ID/g (rat, colon; sc, 3 nmol/kg, 72 h, ex vivo).
For `C[C@@H](O)[C@@H](CO)NC(=O)[C@@H](CCCNC(=N)N)NC(=O)[C@@H]1CCCN1C(=O)[C@@H]1CSSC[C@H](NC(=O)[C@H](Cc2ccccc2)NC(=O)CN2CCN(CC(=O)O)CCN(CC(=O)O)CCN(CC(=O)O)CC2)C(=O)N[C@@H](Cc2ccc(O)cc2)C(=O)N[C@@H](Cc2ccccc2)C(=O)N[C@@H](CCC(N)=O)C(=O)N[C@@H](CC(N)=O)C(=O)N1` [gallium-68 labelled], the tissue uptake was 1.4 %ID/g (Wistar rat, blood; intravenous, 8 MBq, 30 min, group mean).
Under “binding enthalpy ΔH”, `Nc1nc2c(ncn2[C@@H]2O[C@H](COP(=O)(O)OP(=O)(O)OP(=O)(O)O)[C@@H](O)[C@H]2O)c(=O)[nH]1` is recorded as -19.9 ± 2 kcal/mol (GTP 3',8-cyclase (moaA, Staphylococcus aureus, UniProt P69848); isothermal titration calorimetry; concentration not given).
`CCN(CC)CCOc1ccc2c(c1)C(=O)c1cc(OCCN(CC)CC)ccc1-2` has a Hill slope of 0.62 (ache; enzyme activity, inhibitor, Amplex Red).
With `O=C(c1ccc(Cl)cc1)N1CCN2C(=O)N(OC(=O)N3CCOc4ccccc43)C(=O)C2C1` (stereo not drawn) the median ratio was 1.17 (DPP9 (Homo sapiens, UniProt Q86TI2); enzyme activity, inhibitor, MS-based ABPP; SW-620 conditioned medium; 10 µM, 1 h, 37 °C; relative to: compound over DMSO, lower = stronger inhibition).
The reaction velocity of `O=c1c2ccccc2oc2cc(OCCCCc3ccccc3)ccc12` is reported as 0.0014 a.u. (ache; enzyme activity; 2.91 µM, with: substrate 1.73 mM; higher = faster reaction).
`CC[C@H](C)[C@@H]1NC(=O)[C@@H]2CCCN2C(=O)[C@H](CC(C)C)NC(=O)[C@H](CC(C)C)NC(=O)CNC(=O)[C@@H](NC(=O)[C@@H](NC(=O)[C@H](CC(=O)O)NC(=O)CNC(=O)[C@@H](NC(=O)[C@H](C)NC(=O)CNC(=O)[C@H](CCCCN)NC(=O)[C@H](CC(C)C)NC(=O)[C@H](CC(C)C)NC(=O)[C@H](CCCCN)NC(=O)CNC(=O)[C@@H](NC(=O)[C@@H](N)CC(C)C)C(C)C)C(C)C)C(C)C)CSSC[C@@H](C(=O)O)NC1=O`: “log2 fold change” -4 (RNA-seq, refers to: Mefv mRNA; mouse traumatic brain injury, frontal cortex and hippocampus; dose not given; relative to: TBI plus compound vs TBI).
`COc1ccc2[nH]c3c(c2c1)CCN(C)CC3.Cl`: “recovery time constant” 9.5 s (Nicotinic acetylcholine receptor alpha9/alpha10 (Rattus norvegicus, UniProt P43144+Q9JLB5); ion current, inhibitor, two-electrode voltage clamp; Xenopus laevis oocytes; 3 µM, rat receptor, with: acetylcholine 10 µM).
Under “incidence of Fatigue TEAE”, `CO[C@H]1C[C@@H]2CC[C@@H](C)[C@@](O)(O2)C(=O)C(=O)N2CCCC[C@H]2C(=O)O[C@H]([C@H](C)C[C@@H]2CC[C@@H](OC(=O)NCCOCCOCCOCCOCCOCCOCCOCCOCCC(=O)N3CCc4cc(Cn5nc(-c6ccc7oc(N)nc7c6)c6c(N)ncnc65)ccc4C3)[C@H](OC)C2)C[C@@H](O)[C@H](C)/C=C(\C)[C@@H](O)[C@@H](OC)C(=O)[C@H](C)C[C@H](C)/C=C/C=C/C=C/1C` is recorded as 0% (patients with advanced solid tumours; intravenous, 1.6 mg/3 mg weekly, grade ≥3).
`O=C(O)C(/C=C/c1c(Cl)cccc1Cl)=N\Nc1nc(-c2ccc(F)cc2)cs1` gave a selectivity index of 13.5 (ache; Ellman; relative to: IC50 BChE over IC50 AChE).
For `Clc1ccc(-c2ccc(Cl)cc2Cl)cc1`, the EC25 was 15 µM (Estrogen receptor (ESR1, Homo sapiens, UniProt P03372); reporter gene, agonist; T47D.luc; 24 h; relative to: estradiol).
`O=C(Nc1cccnn1)N1CCC(=Cc2cccc(Oc3ccc(C(F)(F)F)cn3)c2)CC1` has an inhibition of 13% (AVPR2; binding; 50 µM, with: [3H][Arg8]vasopressin).
Under “binding fold change”, `CCNS(=O)(=O)C(F)(F)C(F)(F)C(F)(F)C(F)(F)C(F)(F)C(F)(F)C(F)(F)C(F)(F)F` is recorded as 34.1 (FABP1 (Homo sapiens, UniProt P07148); affinity selection mass spectrometry; 100 nM, with: pooled compounds; relative to: other proteins).
`CN1CCN(c2cc(-c3ccncc3)c(-c3ccc4ccccc4c3)nn2)CC1` has an inhibition of -4.8% (AVPR2; antagonist, FLIPR; 10 µM).
`COc1ccc(N2C(=O)N(c3c(C)cccc3Cl)Cc3cnc(Nc4ccc(C5CCN(C)CC5)cc4OC)nc32)nc1` gave an inhibition of 9% (INSRR (Homo sapiens, UniProt P14616); kinase activity, inhibitor; 0.5 µM, kinase IRR).
`COc1cc2c(Oc3ccc4[nH]c(C)cc4c3F)ccnc2cc1OCC1(N)CC1` — result for “grade 3 TBIL elevation”: 0% (paediatric recurrent refractory sarcoma; 8 mg).
For `COc1ccc(F)cc1C(=O)NCc1ccc(-c2nn([C@@H](C)C(F)(F)F)c(N)c2C(N)=O)cc1`, the selectivity ratio was 46.7 (MAP2K1 (Homo sapiens, UniProt Q02750); enzyme activity; relative to: MAP2K1 over BTK).
For `CC(C)C[C@@H]1NC(=O)[C@H](CC(C)C)NC(=O)[C@H](Cc2c[nH]c3ccccc23)NC(=O)[C@H](CO)NC(=O)[C@H](Cc2c[nH]c3ccccc23)NC(=O)[C@@H]2CCCN2C(=O)[C@H](CC(C)C)NC(=O)[C@H](Cc2c[nH]cn2)NC(=O)[C@@H]2CCCN2C(=O)[C@H](CC(N)=O)NC(=O)[C@H](C)NC(=O)[C@H](Cc2ccc(O)cc2)NC(=O)[C@H](CS)NC(=O)[C@H](CCCCNC(=O)CN2CCN(CC(=O)O)CCN(CC(=O)O)CCN(CC(=O)O)CC2)NC1=O` [lutetium-177 labelled], the tissue uptake was 1.9 %ID (Balb/c mouse, female, 4T1 tumour, liver; intravenous, 3.7 MBq, 96 h).
For `O=C(Nc1cnccc1Cl)N1CCN(Cc2ccc3c(c2)OC(F)(F)O3)CC1`, the inhibition was 8% (OPRM1; radioligand binding, inhibitor; 10 µM, human, with: [3H]diprenorphine).
`Clc1ccc2nc(N3CCC(NCCc4cccnc4)CC3)sc2c1` gave a maximum response of -17.2% (Vero-E6; CellTiter-Glo ATP; 72 h, retest 8-point duplicates; relative to: DMSO 0%, hyamine -100%, more negative, more toxic).
For `COc1c(Cl)cccc1Nc1c(-c2ccncc2OC[C@@H]2COCCO2)[nH]c2c1C(=O)NCC2`, the selectivity ratio was over 100 fold (ERBB2 (Homo sapiens, UniProt P04626); kinase activity, TR-FRET; relative to: DDR2 IC50 over HER2 IC50).
`CN[C@@]1(c2ccccc2Cl)CCCCC1=O` gave an inhibition of 58% (OPRM1; radioligand binding, agonist, radioligand displacement; 30 µM).
`CC(C)C[C@H](NC(=O)[C@H](Cc1cccc2ccccc12)NC(=O)OCc1ccccc1)C(=O)NC(C[C@@H]1CCNC1=O)C1OC1S(C)(=O)=O` (stereo partly drawn) has an IC90 of over 100 µM (Genome polyprotein, protease domain (Lordsdale virus, UniProt P54634); enzyme activity, FRET; 37 °C).
`COc1cc(N)c(Cl)cc1C(=O)NC1CN2CCC1CC2` (stereo not drawn) — result for “log2 fold change”: 0.085 (Retinoic acid-induced protein 3 (GPRC5A, Homo sapiens, UniProt Q8NFJ5); β-arrestin recruitment, TANGO luminescence, refers to: GPRC5A; concentration not given; relative to: basal luminescence).
For `COC(=O)[C@@]1(O)C[C@H]2O[C@]1(C)n1c3ccccc3c3c4c(c5c6ccccc6n2c5c31)C(=O)NC4`, the kinase activity was 65.7% and 45.9% and 60% (MAPK3 (Homo sapiens, UniProt P27361); ADP-Glo; 80 nM, with: MBP substrate).
`O=Cc1ccccc1` gave a relative fluorescence of 66.4% (uncharacterized protein (Spodoptera exigua, UniProt F1CEY0); binding, competitor, fluorescence displacement; 20 µM, pH 7.4, with: 1-NPN 20 µM; relative to: 1-NPN alone).
`Nc1ccncc1` gave a potentiation of 84% (Glutamate receptor 2 (Homo sapiens, UniProt P42262); ion current, positive allosteric modulator, automated patch clamp; HEK293; 30 µM).
The remaining binding of `C[C@H]1CN(c2n[nH]c3nc(N[C@H]4CC[C@H](NS(=O)(=O)CCC(F)(F)F)CC4)ncc23)CCO1` is reported as 0.98 (CDK9 (Homo sapiens, UniProt P50750); Kinobeads competition; HEK293, K562, placenta lysate; 0.16 µM, unit not given; relative to: vehicle).
`Nc1ncnc2c1ncn2[C@@H]1O[C@H](COP(=O)(O)OP(=O)(O)O)[C@@H](O)[C@H]1O` has an association constant of 4860 ± 1720 M⁻¹ (Cell cycle histidine kinase CckA, G318A; cytoplasmic region (Caulobacter vibrioides, UniProt Q9X688, G318A); binding, ITC; with: without c-di-GMP).
For `CC(C)[C@@H](O)CC[C@@H](C)[C@H]1CC[C@H]2[C@@H]3CC=C4C[C@@H](O)CC[C@]4(C)[C@H]3CC[C@]12C`, the current response was 161 ± 8.7% (Glutamate NMDA receptor; GRIN1/GRIN2B (GRIN1/GRIN2B, Homo sapiens, UniProt Q05586+Q13224, A549C); positive allosteric modulator, two-electrode voltage clamp; Xenopus oocytes expressing GluN2B-A549C; 10 µM, 0.02% cremophor, with: 100 µM glutamate and glycine; relative to: without compound).
For `CC(C)[C@@H]1NC(=O)[C@H](Cc2ccccc2)NC(=O)[C@@H]2NC(=O)[C@H](Cc3ccccc3)NC(=O)[C@@H]3CCCN3C(=O)CNC(=O)[C@H](Cc3ccccc3)NC(=O)[C@@H]3CNCCCC[C@@H](C(=O)O)NC(=O)[C@@H]4NC(=O)[C@H](CC(N)=O)NC(=O)CNC(=O)[C@H]([C@@H](O)C(=O)O)NC(=O)[C@H](CSC[C@@H](NC(=O)[C@H](CCC(N)=O)NC(=O)[C@H](CCCCNC(=O)c5ccc(NN)nc5)NC(=O)[C@@H](N)CS[C@H]4C)C(=O)N[C@@H](CS[C@H]2C)C(=O)N3)NC1=O` [technetium-99m labelled], the tissue uptake was 0.09 ± 0.03 %ID/g (rat, saline control, stomach; intravenous, 2 h after tracer, tracer 24 h after reperfusion).
For `O=C(O)Cc1c[nH]cn1`, “normalised MST signal” read -0.0198 (SLC6A6 (Homo sapiens, UniProt P31641, Y138A); binding, microscale thermophoresis; 122 nM, room temperature, with: 50 nM labelled protein; higher = more binding).
`CC1(C)C(C=C(Cl)Cl)C1C(=O)OCc1cccc(Oc2ccccc2)c1` (stereo not drawn) has a remaining activity of 2.7% (uncharacterized protein (Anopheles coluzzii, UniProt A0A6E8VQK1); enzyme activity, inhibitor; Sf9 cell homogenate; 209.3 µM, 0.1667 h, with: α-naphthyl acetate substrate; relative to: no inhibitor).
The remaining binding of `[2H]c1c([2H])c([C@]2([2H])CCCN2C(=O)C(C)(C)Oc2ccc3cn[nH]c3c2)c([2H])c([2H])c1C([2H])([2H])[2H]` is reported as 64% (PAK5 (Homo sapiens, UniProt Q9P286); KINOMEscan; 1 µM; relative to: DMSO control).
The Km of `O=C(CF)NC1C(O)CC(OC2C(O)C(CO)OC(Oc3ccc([N+](=O)[O-])cc3)C2O)(C(=O)O)OC1C(O)C(O)CO` (stereo not drawn) is reported as 1.8 ± 0.2 mM (Sialidase-2 (Homo sapiens, UniProt Q9Y3R4); substrate; 10 min, pH 5.0, 37 °C).
